Published values of several laboratories.
Protocols differ between the studies behind these lines. “And” joins repeats or separate records; there may be more than shown. ± marks the error that the study gave.
HRH1: Histamine H1 receptor (HRH1, Homo sapiens, UniProt P35367)
UniProt D0VWV4, sequence (whole entry, looked up): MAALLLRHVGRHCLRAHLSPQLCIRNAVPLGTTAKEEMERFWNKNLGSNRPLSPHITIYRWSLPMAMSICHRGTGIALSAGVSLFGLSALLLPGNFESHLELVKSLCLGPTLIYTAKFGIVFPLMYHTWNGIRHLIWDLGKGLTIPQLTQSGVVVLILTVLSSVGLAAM
UniProt P06276, sequence (whole entry, looked up): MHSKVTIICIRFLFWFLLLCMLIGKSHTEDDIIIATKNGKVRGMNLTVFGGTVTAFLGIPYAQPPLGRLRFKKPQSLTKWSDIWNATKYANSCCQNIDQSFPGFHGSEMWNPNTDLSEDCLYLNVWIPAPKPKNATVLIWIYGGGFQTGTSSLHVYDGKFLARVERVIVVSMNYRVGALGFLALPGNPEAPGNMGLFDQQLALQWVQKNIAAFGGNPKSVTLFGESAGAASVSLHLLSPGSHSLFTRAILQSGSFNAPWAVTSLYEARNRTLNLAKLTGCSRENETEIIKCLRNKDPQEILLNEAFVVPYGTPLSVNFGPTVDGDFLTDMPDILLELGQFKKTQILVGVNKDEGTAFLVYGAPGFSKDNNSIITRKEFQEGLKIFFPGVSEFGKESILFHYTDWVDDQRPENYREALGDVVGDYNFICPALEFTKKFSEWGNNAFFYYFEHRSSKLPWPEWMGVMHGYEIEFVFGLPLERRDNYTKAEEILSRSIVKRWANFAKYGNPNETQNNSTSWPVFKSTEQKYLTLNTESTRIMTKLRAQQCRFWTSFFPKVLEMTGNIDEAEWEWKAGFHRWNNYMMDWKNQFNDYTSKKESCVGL
UniProt A5GZW8, sequence (whole entry, looked up): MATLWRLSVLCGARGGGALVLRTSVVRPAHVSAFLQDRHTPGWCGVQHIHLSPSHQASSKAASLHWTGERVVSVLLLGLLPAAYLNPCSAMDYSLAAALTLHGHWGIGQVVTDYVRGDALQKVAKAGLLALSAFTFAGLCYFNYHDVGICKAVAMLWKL
UniProt Q007T0, sequence (whole entry, looked up): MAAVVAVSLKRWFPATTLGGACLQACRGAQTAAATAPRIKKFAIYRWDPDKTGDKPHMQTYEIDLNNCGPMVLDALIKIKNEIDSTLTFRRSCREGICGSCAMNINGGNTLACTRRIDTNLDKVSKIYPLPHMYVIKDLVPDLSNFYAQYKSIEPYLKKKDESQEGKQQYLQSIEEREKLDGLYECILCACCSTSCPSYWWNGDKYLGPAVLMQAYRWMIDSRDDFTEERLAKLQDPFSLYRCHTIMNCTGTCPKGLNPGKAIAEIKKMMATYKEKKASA
UniProt P35367, sequence (whole entry, looked up): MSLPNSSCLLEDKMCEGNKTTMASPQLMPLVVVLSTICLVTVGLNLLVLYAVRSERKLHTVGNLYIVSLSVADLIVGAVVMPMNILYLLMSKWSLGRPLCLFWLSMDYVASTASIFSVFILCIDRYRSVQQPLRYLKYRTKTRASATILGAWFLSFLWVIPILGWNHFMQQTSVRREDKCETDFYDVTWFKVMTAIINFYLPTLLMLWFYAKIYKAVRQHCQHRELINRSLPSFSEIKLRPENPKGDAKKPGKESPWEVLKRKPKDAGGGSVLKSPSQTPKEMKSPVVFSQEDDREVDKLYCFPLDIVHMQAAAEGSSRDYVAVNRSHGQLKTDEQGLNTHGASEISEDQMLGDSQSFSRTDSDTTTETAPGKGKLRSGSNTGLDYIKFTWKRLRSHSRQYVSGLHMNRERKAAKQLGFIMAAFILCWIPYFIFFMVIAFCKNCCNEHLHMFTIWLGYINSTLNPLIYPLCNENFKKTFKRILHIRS
UniProt P62813, sequence (whole entry, looked up): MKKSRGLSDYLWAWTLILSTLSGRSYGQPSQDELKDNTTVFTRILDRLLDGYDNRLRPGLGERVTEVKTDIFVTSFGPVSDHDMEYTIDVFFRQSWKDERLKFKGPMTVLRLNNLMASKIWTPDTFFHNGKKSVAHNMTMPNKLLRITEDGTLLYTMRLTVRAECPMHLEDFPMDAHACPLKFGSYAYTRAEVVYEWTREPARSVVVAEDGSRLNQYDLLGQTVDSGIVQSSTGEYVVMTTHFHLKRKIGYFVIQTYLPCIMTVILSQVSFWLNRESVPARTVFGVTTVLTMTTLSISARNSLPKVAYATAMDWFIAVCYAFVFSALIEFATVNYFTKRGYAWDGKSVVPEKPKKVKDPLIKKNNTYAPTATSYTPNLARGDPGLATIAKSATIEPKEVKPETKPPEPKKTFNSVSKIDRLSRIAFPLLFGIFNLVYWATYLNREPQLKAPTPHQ
UniProt P35462, sequence (whole entry, looked up): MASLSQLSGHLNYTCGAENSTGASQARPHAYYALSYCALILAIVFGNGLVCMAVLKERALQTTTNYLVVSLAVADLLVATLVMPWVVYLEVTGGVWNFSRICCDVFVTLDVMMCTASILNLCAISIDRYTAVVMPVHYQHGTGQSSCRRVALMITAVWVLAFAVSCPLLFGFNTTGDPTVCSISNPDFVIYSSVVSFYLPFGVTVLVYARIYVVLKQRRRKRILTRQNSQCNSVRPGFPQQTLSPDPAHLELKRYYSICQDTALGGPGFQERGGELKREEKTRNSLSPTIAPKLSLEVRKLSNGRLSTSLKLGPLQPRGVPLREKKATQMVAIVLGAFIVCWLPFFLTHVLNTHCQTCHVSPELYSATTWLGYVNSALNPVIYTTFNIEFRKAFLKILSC
UniProt Q704Y3, sequence (whole entry, unmodified, looked up): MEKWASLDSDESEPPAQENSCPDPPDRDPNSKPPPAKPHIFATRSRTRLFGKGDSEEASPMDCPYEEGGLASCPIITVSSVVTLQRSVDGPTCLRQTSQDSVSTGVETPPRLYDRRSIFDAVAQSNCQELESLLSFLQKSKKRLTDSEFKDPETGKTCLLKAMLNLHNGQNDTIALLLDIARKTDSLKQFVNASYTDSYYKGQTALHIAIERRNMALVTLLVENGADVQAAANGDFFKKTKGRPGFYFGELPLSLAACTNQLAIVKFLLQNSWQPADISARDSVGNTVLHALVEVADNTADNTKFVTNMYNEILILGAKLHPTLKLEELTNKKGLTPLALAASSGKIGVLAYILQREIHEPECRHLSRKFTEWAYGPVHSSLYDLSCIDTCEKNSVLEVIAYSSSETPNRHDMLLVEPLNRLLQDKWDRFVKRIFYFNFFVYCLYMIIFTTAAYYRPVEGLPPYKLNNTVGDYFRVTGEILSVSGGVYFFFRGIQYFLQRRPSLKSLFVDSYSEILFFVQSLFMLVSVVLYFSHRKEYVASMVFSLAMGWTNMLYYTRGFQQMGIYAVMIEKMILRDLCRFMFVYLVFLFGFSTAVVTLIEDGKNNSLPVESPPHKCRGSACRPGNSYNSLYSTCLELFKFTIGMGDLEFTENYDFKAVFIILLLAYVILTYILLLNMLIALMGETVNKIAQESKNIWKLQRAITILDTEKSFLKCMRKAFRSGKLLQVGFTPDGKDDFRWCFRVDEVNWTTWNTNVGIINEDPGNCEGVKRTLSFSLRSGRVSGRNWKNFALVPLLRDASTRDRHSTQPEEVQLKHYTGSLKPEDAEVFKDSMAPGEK
UniProt O42275, sequence (whole entry, looked up): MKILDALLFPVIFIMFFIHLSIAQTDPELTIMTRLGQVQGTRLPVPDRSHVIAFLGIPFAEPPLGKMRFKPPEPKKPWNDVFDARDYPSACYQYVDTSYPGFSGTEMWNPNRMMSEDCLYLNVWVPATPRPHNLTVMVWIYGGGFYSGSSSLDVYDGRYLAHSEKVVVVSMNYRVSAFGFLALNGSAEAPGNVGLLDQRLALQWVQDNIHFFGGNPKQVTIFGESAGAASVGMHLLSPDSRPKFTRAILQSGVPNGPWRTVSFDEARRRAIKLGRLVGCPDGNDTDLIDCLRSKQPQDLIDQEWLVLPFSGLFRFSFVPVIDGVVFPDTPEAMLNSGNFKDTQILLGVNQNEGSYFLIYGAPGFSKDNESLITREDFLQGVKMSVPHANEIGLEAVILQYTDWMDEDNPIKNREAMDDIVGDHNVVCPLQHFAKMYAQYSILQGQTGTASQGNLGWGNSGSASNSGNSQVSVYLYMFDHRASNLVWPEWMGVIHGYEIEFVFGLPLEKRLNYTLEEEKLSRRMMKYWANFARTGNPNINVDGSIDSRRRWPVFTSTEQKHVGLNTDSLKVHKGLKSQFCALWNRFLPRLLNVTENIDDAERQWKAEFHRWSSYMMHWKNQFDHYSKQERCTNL
UniProt P49019, sequence (whole entry, looked up): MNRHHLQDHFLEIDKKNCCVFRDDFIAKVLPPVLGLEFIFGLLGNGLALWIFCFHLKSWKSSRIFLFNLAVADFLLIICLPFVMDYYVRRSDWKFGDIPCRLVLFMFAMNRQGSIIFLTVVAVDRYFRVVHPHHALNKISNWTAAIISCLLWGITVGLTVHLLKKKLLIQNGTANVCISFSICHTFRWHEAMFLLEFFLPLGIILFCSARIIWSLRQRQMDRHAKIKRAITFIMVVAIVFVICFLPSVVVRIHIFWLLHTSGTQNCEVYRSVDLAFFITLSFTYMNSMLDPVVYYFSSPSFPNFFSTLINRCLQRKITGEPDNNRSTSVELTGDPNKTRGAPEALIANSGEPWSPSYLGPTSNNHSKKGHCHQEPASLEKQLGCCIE
UniProt P31749, sequence (whole entry, unmodified, looked up): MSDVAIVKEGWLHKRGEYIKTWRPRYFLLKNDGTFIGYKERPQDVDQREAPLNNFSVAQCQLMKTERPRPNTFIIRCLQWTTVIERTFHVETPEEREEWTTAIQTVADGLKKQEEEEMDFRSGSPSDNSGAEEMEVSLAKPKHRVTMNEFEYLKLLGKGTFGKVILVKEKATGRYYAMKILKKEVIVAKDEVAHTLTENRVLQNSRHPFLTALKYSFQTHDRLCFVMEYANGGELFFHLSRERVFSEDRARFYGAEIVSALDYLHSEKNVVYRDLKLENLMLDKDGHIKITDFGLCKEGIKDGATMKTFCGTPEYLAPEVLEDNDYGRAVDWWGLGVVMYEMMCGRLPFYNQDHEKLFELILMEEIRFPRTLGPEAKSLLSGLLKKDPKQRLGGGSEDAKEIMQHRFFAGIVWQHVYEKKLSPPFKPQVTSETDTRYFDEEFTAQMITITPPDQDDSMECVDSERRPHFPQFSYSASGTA

| SMILES | target or system | test | system | setting | scale | endpoint | result |
| --- | --- | --- | --- | --- | --- | --- | --- |
| [2H]c1c([2H])c([C@]2([2H])CCCN2C(=O)C(C)(C)Oc2ccc3cn[nH]c3c2)c([2H])c([2H])c1C([2H])([2H])[2H] | CAMK2A (Homo sapiens, UniProt Q9UQM7) | KINOMEscan |  | 1 µM | reference: DMSO control | remaining binding | 66% |
| CCN(CC)CCCC[C@H](NC(=O)[C@H](CC(C)C)NC(=O)[C@H](C)NC(=O)[C@H](Cc1ccccc1)NC(=O)c1ccc(C(C)(C)C)cc1)C(=O)N[C@@H](CO)C(=O)OC | HRH1 | antagonist, radioligand binding |  | 10 µM | reference: control binding | specific binding | 106% |
| COc1ccc(N2C(=O)N(c3c(C)cccc3Cl)Cc3cnc(Nc4ccc(C5CCN(C)CC5)cc4OC)nc32)nc1 | BRSK2 (Homo sapiens, UniProt Q8IWQ3) | kinase activity |  | 0.5 µM |  | inhibition | 10% |
| COc1cc(N)c(Cl)cc1C(=O)NC1CN2CCC1CC2 (centres unmarked) | HCAR3 (Homo sapiens, UniProt P49019) | β-arrestin recruitment, TANGO luminescence, refers to: GPR109B |  | concentration not given | reference: basal luminescence | log2 fold change | 0.203 |
| Nc1ncc(-c2nc(N3CCOCC3)nc(N3CCOCC3)n2)c(C(F)F)n1 | Tyrosine-protein kinase ABL1, phosphorylated (ABL1, Homo sapiens, UniProt P00519, F317I) | KINOMEscan |  | 10 µM |  | remaining binding | 70% |
| Nc1ncnc2c1ncn2[C@@H]1O[C@H](COP(=O)(O)OP(=O)(O)O)[C@@H](O)[C@H]1O | Cell cycle histidine kinase CckA, R374A; cytoplasmic region (Caulobacter vibrioides, UniProt Q9X688, R374A) | binding, ITC |  | together with: without c-di-GMP |  | association constant | 2810 ± 292 M⁻¹ |
| Cc1cc(=O)oc2cc(OCCCC[Se]C#N)ccc12 | CA12 (Homo sapiens, UniProt O43570) | stopped-flow CO2 hydration |  |  | reference: Ki CA II over Ki CA XII | selectivity ratio | > 1940 |
| CC12CCC(CC1)C(C)(C)O2 | 1,8-cineole 2-endo-monooxygenase (cinA, Citrobacter braakii, UniProt Q8VQF6, N242A) | NADPH turnover |  | concentration not given, N242A mutant | reference: wild type | activity decrease | 70% |
| Oc1noc2c1CCNC2 | GABA-A receptor; alpha-1/beta-2/gamma-2 (Rattus norvegicus, UniProt P18508+P62813+P63138) | chloride current, agonist, whole-cell patch clamp | HEK293 expressing GABAA | 30 s | reference: maximum | maximal response | 122% |
| O=C1[O][Pt]2([NH][C@@H]3CCCC[C@H]3[NH]2)[O]C1=O | Chrna7 (Rattus norvegicus, UniProt Q05941) | ion current, antagonist |  | together with: nicotine 25 µM |  | Hill coefficient | 1.8 ± 0.2 |
| COc1cc(Nc2ncc(F)c(Nc3ccc4c(n3)NC(=O)C(C)(C)O4)n2)cc(OC)c1OC | ULK1 (Homo sapiens, UniProt O75385) | KINOMEscan |  | 10 µM |  | inhibition | 100% |
| CN(C(=O)n1cnc(-c2ccc[n+]([O-])c2)c1)C1CCCCC1 | Protein S100-A16 (Rattus norvegicus, UniProt A0ACM8QDC9) | competitive ABPP with azido-FP probe | rat brain membrane fraction | 10 µM, unit not given | reference: DMSO | probe labelling | -1.1 |
| CN(C)CCN(Cc1ccsc1)c1ccccn1 | Cholinesterase (BCHE, Homo sapiens, UniProt P06276) |  |  | concentration not given, Triton |  | efficacy | -83.6 ± 9.47% |
| CC(C)[C@@H]1NC(=O)[C@H](Cc2ccccc2)NC(=O)[C@@H]2NC(=O)[C@H](Cc3ccccc3)NC(=O)[C@@H]3CCCN3C(=O)CNC(=O)[C@H](Cc3ccccc3)NC(=O)[C@@H]3CNCCCC[C@@H](C(=O)O)NC(=O)[C@@H]4NC(=O)[C@H](CC(N)=O)NC(=O)CNC(=O)[C@H]([C@@H](O)C(=O)O)NC(=O)[C@H](CSC[C@@H](NC(=O)[C@H](CCC(N)=O)NC(=O)[C@H](CCCCNC(=O)c5ccc(NN)nc5)NC(=O)[C@@H](N)CS[C@H]4C)C(=O)N[C@@H](CS[C@H]2C)C(=O)N3)NC1=O [technetium-99m labelled] |  |  | rat, saline control, muscle | intravenous, 2 h after tracer, tracer 2 h after reperfusion |  | tissue uptake | 0.02 %ID/g |
| CN[C@@H]1C[C@H]2O[C@@](C)([C@@H]1OC)n1c3ccccc3c3c4c(c5c6ccccc6n2c5c31)C(=O)NC4 | AKT1 (Homo sapiens, UniProt P31749) | binder, differential scanning fluorimetry |  |  |  | ΔTm | 0.4 °C |
| O=C(c1ccc(Cl)cc1)N1CCN2C(=O)N(OC(=O)N3CCOc4ccccc43)C(=O)C2C1 (centres unmarked) | Biotinidase (Homo sapiens, UniProt P43251) | MS-based ABPP | SW-620 conditioned medium | 10 µM, 1 h, 37 °C, median protein ratio | reference: compound over DMSO | probe labelling ratio | 1.76 |
| O=C(O)C(F)(F)C(F)(F)C(F)(F)C(F)(F)C(F)(F)C(F)(F)C(F)(F)F | SLC10A1 (Homo sapiens, UniProt Q14973) | substrate | HEK293 stably expressing | 10 µM |  | linear uptake duration | 1 min |
| O=C(O)COP(=O)(O)O | TPI1 (Saccharomyces cerevisiae, UniProt P00942, Y208A) | enzyme activity, competitive inhibitor, GPDH/NADH-coupled |  | pH 8.3, 25 °C, ionic strength 0.1 NaCl, together with: glyceraldehyde 3-phosphate substrate | reference: mutant over wild type | Ki ratio | 40 |
| CCOC(=O)COc1ccc2c(=O)c3ccccc3oc2c1 | ache (Electrophorus electricus, UniProt O42275) | enzyme activity |  | 3.36 µM, together with: substrate 3.45 mM | higher = faster reaction | reaction velocity | 0.0024 a.u. |
| CC(N)C(=O)OC(C)(C)Cc1ccc(Cl)cc1 (centres unmarked) | Plasmodium falciparum |  | W2 |  |  | IC50 | 1260 nM |
| CCN(C)C(=O)Oc1ccc(/C=C/C(=O)NC2CCN(Cc3ccccc3)CC2)cc1 | Cholinesterase (BCHE, Equus caballus, UniProt P81908) | Ellman | equine serum BuChE |  | reference: AChE IC50 over BuChE IC50 | selectivity ratio | 0.1 |

| SMILES | target or system | test | system | setting | scale | endpoint | result |
| --- | --- | --- | --- | --- | --- | --- | --- |
| Cc1[nH]c(C)c(S(=O)(=O)Nc2ccc(S(=O)(=O)F)c(F)c2)c1C(=O)N1CCC(F)(F)C1 | DRD3 (Homo sapiens, UniProt P35462) | β-arrestin recruitment, agonist, PathHunter |  |  | reference: dopamine | Imax | 99 ± 2% |
| O=C(Nc1cccnn1)N1CCC(=Cc2cccc(Oc3ccc(C(F)(F)F)cn3)c2)CC1 | HRH1 | radioligand binding |  | 50 µM, together with: [3H]pyrilamine |  | inhibition of binding | 75% |
| Cc1cn([C@H]2C[C@H](O)[C@@H](COP(=O)(O)OP(=O)(O)OP(=O)(O)O)O2)c(=O)[nH]c1=O | Gag-Pol polyprotein, reverse transcriptase (gag-pol, Human immunodeficiency virus type 1 group M subtype B, UniProt P04585, K653T) | nucleotide misincorporation, steady-state kinetics |  | K66T RT, together with: matched template/primer, template T |  | kcat | 0.191 ± 0.04 s⁻¹ |
| O=C1CN(C(=O)CCn2ccnc2)CC(O)CN1CCc1ccccc1 (centres unmarked) | Cholinesterase (BCHE, Homo sapiens, UniProt P06276) | inhibitor |  | 0.5 µM |  | apparent Vmax | 0.34 ± 0.02 µM/min |
| Oc1ccc(-c2ccc(Cl)cc2)c(Cl)c1 | Androgen receptor (AR, Homo sapiens, UniProt P10275) | reporter gene, antagonist |  | 5 µM, together with: DHT 2 nM | reference: DHT 2 nM | maximum activity | 9% |
| CCCCCCCCCCC1=C(N(C)C)C(=O)c2ccccc2C1=O | Reaction center protein M chain, QA site (pufM, Cereibacter sphaeroides, UniProt P0C0Y9) | charge recombination | Rhodobacter sphaeroides, LDAO detergent solution | pH 7.8, 298 K, quinone reconstituted in QA site |  | P+QA− recombination rate | 550 s⁻¹ |
| NCCc1c[nH]c2ccc(O)cc12 | AANAT2 cattle | substrate, DTNB colorimetric |  | together with: acetyl-CoA |  | Km | 190 ± 80 µM |
| CC1(C)S[C@@H]2[C@H](NC(=O)[C@H](N)c3ccccc3)C(=O)N2[C@H]1C(=O)O | Penicillin-binding protein 1A (pbpA, Streptococcus pneumoniae, UniProt Q8DR59) | inhibitor |  |  |  | kinact/KI | 15000 ± 1300 M⁻¹ s⁻¹ |
| C[C@H]1CN(c2n[nH]c3nc(N[C@H]4CC[C@H](NS(=O)(=O)CCC(F)(F)F)CC4)ncc23)CCO1 | PSMD3 (Homo sapiens, UniProt O43242) | inhibitor, Kinobeads competition profiling |  | 20 µM | reference: vehicle | relative abundance | 1.25 |
| CCN(CC)CCNC(=O)c1cc(Br)c(N)cc1OC | Cholinesterase (BCHE, Homo sapiens, UniProt P06276) |  |  | concentration not given, Triton |  | efficacy | -98.6 ± 8.98% |
| C=C(CN(C(=O)c1c(C(F)F)nn(C)c1F)C1CC1)c1ccc(Cl)cc1Cl | SDHD/SDHC/SDHB (Sus scrofa, UniProt A5GZW8+D0VWV4+Q007T0) | enzyme activity, inhibitor, DCIP reduction | pig | 0.06 µM, together with: DCIP 40 µM |  | reaction velocity | 0.0141 µM/s and 0.0135 µM/s and 0.0137 µM/s |
| CN1CCN(c2cc(-c3ccncc3)c(-c3ccc4ccccc4c3)nn2)CC1 | Proteinase-activated receptor 2, trypsin-activated (F2RL1, Homo sapiens, UniProt P55085) | agonist, FLIPR |  | 12.5 µM |  | activation | -3.2% |
| C[C@@H]1CC[C@H]2[C@@H](C)C(=O)O[C@@H]3O[C@@]4(C)CC[C@@H]1[C@]32OO4 | Plasmodium falciparum | cell growth | Dd2 |  |  | IC50 | 33 nM |
| O=C(O)c1ccc2nc(-c3cc(Cl)cc(Cl)c3)oc2c1 | Transthyretin (TTR, Homo sapiens, UniProt P02766) | fluorescent probe exclusion | human serum | 10 µM, 15:00:00 |  | probe binding remaining | 10.5% and 12.1% and 9.8% and 6.49% |
| CCCCCCCCCCCCc1ccc([C@H]2CC[C@H]([N+](C)(C)CCC)CC2)cc1.[I-] | SPHK2 (Homo sapiens, UniProt Q9NRA0) | inhibitor, radiometric flash-plate | cell lysate | together with: sphingosine 5 µM |  | Ki/Km ratio | 1.6 |
| C[C@@H](NCCCc1cccc(C(F)(F)F)c1)c1cccc2ccccc12 | Cholinesterase (BCHE, Homo sapiens, UniProt P06276) |  |  | concentration not given, Triton |  | efficacy | -95.9 ± 21% |
| O=C(Nc1cnccc1Cl)N1CCN(Cc2ccc3c(c2)OC(F)(F)O3)CC1 | glycine transporter, rat | binding |  | 50 µM, together with: [3H]glycine |  | inhibition | -1% |
| CO[C@H]1C[C@@H]2CC[C@@H](C)[C@@](O)(O2)C(=O)C(=O)N2CCCC[C@H]2C(=O)O[C@H]([C@H](C)C[C@@H]2CC[C@@H](OC(=O)NCCOCCOCCOCCOCCOCCOCCOCCOCCC(=O)N3CCc4cc(Cn5nc(-c6ccc7oc(N)nc7c6)c6c(N)ncnc65)ccc4C3)[C@H](OC)C2)C[C@@H](O)[C@H](C)/C=C(\C)[C@@H](O)[C@@H](OC)C(=O)[C@H](C)C[C@H](C)/C=C/C=C/C=C/1C |  |  | patients with advanced solid tumours | intravenous, 12 mg weekly, grade 3 or higher |  | anaemia incidence | 0% |
| Cc1ccc([C@H]2C[C@@H]2COc2cc(NCc3nnc(C)s3)nc(C)n2)nc1 | PDE3A (Homo sapiens, UniProt Q14432) | enzyme activity, inhibitor, IMAP fluorescence polarization |  |  | reference: Ki target over Ki PDE10A2 | selectivity ratio | > 1.72e+06 fold |
| CCCCC/C=C\C/C=C\C/C=C\C/C=C\CCCC(=O)NCCO | Trpv1 (Mus musculus, UniProt Q704Y3, T551S) | ion current, agonist, whole-cell patch clamp |  | T551S | reference: 3 mM 2-APB | maximal open probability | 0.83 ± 0.09 |

A few entries again:
| SMILES | target or system | test | system | setting | scale | endpoint | result |
| --- | --- | --- | --- | --- | --- | --- | --- |
| CCCCC/C=C\C/C=C\C/C=C\C/C=C\CCCC(=O)NCCO | Trpv1 (Mus musculus, UniProt Q704Y3, T551S) | ion current, agonist, whole-cell patch clamp |  | T551S | reference: 3 mM 2-APB | maximal open probability | 0.83 ± 0.09 |
| C[C@@H](NCCCc1cccc(C(F)(F)F)c1)c1cccc2ccccc12 | Cholinesterase (BCHE, Homo sapiens, UniProt P06276) |  |  | concentration not given, Triton |  | efficacy | -95.9 ± 21% |
| Cc1cn([C@H]2C[C@H](O)[C@@H](COP(=O)(O)OP(=O)(O)OP(=O)(O)O)O2)c(=O)[nH]c1=O | Gag-Pol polyprotein, reverse transcriptase (gag-pol, Human immunodeficiency virus type 1 group M subtype B, UniProt P04585, K653T) | nucleotide misincorporation, steady-state kinetics |  | K66T RT, together with: matched template/primer, template T |  | kcat | 0.191 ± 0.04 s⁻¹ |
